Experimental data pooled from the literature.
A part holds a random share of what one study measured. Positions count from the first letter of the parent shown.

Study 1
Target: Interferon regulatory factor 3, full length, phosphomimetic (IRF3, Homo sapiens, UniProt Q14653, residues 1-427, S386D/S396D/S398D/S402D/T404D/S405D)
Technique: protein-binding microarray
Form: double-stranded DNA, one strand shown
Matrix: in vitro
Concentration: 2540 nM top
Notes: 60-bp whole probe
Together with: salmon DNA 0.4 mg/ml
Reference: random background probes
Reading: higher = stronger binding
Constant ends, left off below: GCCTAGCAC … GTCTTGATTCGCTTGACGCTGCTG
Residues (chain): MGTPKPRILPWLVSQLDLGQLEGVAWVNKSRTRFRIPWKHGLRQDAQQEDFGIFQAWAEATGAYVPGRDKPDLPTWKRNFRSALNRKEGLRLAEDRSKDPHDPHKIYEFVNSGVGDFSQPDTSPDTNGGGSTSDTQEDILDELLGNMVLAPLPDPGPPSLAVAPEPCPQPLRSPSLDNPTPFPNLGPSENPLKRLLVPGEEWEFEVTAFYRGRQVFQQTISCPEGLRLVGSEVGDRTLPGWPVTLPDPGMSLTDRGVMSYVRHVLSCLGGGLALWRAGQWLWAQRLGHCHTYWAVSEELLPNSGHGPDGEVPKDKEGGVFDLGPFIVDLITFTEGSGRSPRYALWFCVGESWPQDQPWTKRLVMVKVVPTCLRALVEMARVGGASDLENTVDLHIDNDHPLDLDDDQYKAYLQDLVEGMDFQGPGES
Strand | fitted relative affinity
TTAGAGATCGGGTTTCGATTAGTGCTA | 1.93 z-score
GACGAACTGGGGTTTCGAAACGTGCTA | 1.61 z-score
TTAGAACTGGGGTTTCGATTAGTGCTA | 1.4 z-score
TCAATGTTCACTATTTAACTGTGCTAG | 0.612 z-score
GCCGGTTTCGGTTCCGGGACGTGCTAG | 10.8 z-score
GACGGTATCCTTCTCCTGACGTGCTAG | 6.84 z-score
GACGGTCTCCTTCCCCTGACGTGCTAG | 1.35 z-score
TTAGGTATCGGGTTTCGGTTTGTGCTA | 5.21 z-score
CCTAGCCTCCCAGCCCAGCAGTGCTAG | -0.366 z-score
GACGCACTGGGGTTTCGAGACGTGCTA | -0.0299 z-score
TTAAGTTTCGACTATCGGTTAGTGCTA | 2.69 z-score
TTTAAGCTCCTATCTTATGATGTGCTA | 1.19 z-score
GACGGTTTCGACTATCGGAACGTGCTA | 3.26 z-score
GAAGAACTGGGGTATCGAGACGTGCTA | -0.801 z-score
GACGATCTCAGTCGCGAGACGTGCTAG | 0.0974 z-score
TCAGCTTCCTCTTTCTCACTGTGCTAG | 1.78 z-score
TGCGGTTCAGATATAGGATAGTGCTAG | 0.468 z-score
TCAGTTTTACAATTTGCACTGTGCTAG | 2.2 z-score
GGGGTTAGGGTCATTCATTCGTGCTAG | -0.556 z-score
GGATGAAGCGCTTCTCGAGTGGTGCTA | -0.602 z-score
GACCATCTCAGTATCGAGACGTGCTAG | 1.51 z-score
TTACGTTTCCTTTTCCTTTAGTGCTAG | 9.84 z-score
TGAAGTTTTAATAACACAGAGTGCTAG | -0.0412 z-score
GACGGTTTCGACACTGGGGAGGTGCTA | 3.23 z-score
GAAGGACTGGGTTTCGGGACGTGCTAG | 1.04 z-score

Study 2
Target: CEP164, C-terminal peptide (human)
Technique: DHFR complementation, deep sequencing
Matrix: yeast
Notes: single substitutions, model-inferred values
Reference: wild type
Reading: higher = weaker binding
Starting sequence: PDZK1, PDZ domain 2 (human); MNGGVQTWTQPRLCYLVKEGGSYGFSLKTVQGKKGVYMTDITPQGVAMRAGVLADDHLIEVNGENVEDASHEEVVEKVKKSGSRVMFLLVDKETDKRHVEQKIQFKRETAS; partner HNRVKVYRF
Substitution | binding free energy change [kcal/mol]
P11N | 0.315
V85N | 1.44
W8Q | -0.167
H71I | -0.861
L13G | 0.284
Y15A | 0.212
F25R | 1.28
Q31A | -0.0663
L53K | -0.146
S83T | 0.0211
L27K | 0.873
R84N | 0.231
V99W | -0.135
L88N | 0.455
Y15I | 0.0163
S83Q | -0.00753
L16W | 1.15
M86P | 0.705
E72D | 0.382
Q44V | 0.311
E108R | -0.514

Study 3
Target: CCND2, cyclin fold, Cln2 fusion (human)
Technique: yeast growth competition, sequencing
Matrix: yeast
Notes: weak parent motif
Reference: not given
Reading: higher = stronger binding
Starting sequence: SAMHD1 docking peptide (human); ASKSRVQLFKDDP
Substitution | normalised enrichment score
ASKSRVQLVKDDP [F9V] | 0.573
ASKSRVMLFKDDP [Q7M] | -0.203
ASKSRVQLFIDDP [K10I] | 0.154
ASKSRVQLFLDDP [K10L] | 0.429
ASKSRVQLFDDDP [K10D] | 0.373
ASKSWVQLFKDDP [R5W] | 0.379
ASKQRVQLFKDDP [S4Q] | 0.147
ASKSRVQLFNDDP [K10N] | 0.114
ARKSRVQLFKDDP [S2R] | -0.113
ASKSRVQLDKDDP [F9D] | 0.118
ASKSRVQVFKDDP [L8V] | 0.0481
ASKSRVQDFKDDP [L8D] | 0.301
ASKSDVQLFKDDP [R5D] | 0.0747
ASKSRVQRFKDDP [L8R] | -0.0412
ASLSRVQLFKDDP [K3L] | 0.516
ASKSRVKLFKDDP [Q7K] | 0.258
ASKSRVQFFKDDP [L8F] | 0.0465
ASKLRVQLFKDDP [S4L] | -0.134
ASKSRVQIFKDDP [L8I] | -0.153
ASKSRVQLFKCDP [D11C] | 0.346
ASKSCVQLFKDDP [R5C] | 0.279
ASKSRVQLFKNDP [D11N] | -0.243
ASKSRVQLFKWDP [D11W] | -0.0239

Study 4
Target: MAFG, bZIP domain (human)
Technique: DHFR protein complementation
Matrix: yeast
Notes: single substitutions, most at no-binding floor
Reference: wild-type JUN-FOS pair
Reading: higher = stronger binding
Starting sequence: JUN, bZIP domain (human); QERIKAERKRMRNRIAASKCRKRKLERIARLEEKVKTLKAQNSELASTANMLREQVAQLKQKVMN; partner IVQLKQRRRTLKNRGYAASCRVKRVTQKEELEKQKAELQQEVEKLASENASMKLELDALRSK
Substitution | binding fitness [natural log]
Q41V | -1.54
N42T | -1.46
T48W | -1.46
V35A | -1.55
K36F | -1.35
Q55G | -1.47
L45G | -1.43
L52V | -1.37
A57E | -1.43
S47A | -1.33
I28L | -1.51
E32V | -1.33
E33T | -1.31
A46F | -1.35
E54L | -1.41
N42F | -1.44
I28N | -1.45
M51H | -1.46
I28S | -1.4
E44T | -1.54
Q41R | -1.48
L45V | -1.48
A49V | -1.15

Study 5
Target: Fragile X messenger ribonucleoprotein 1, C-terminal low-complexity region (Fmr1, Mus musculus, UniProt P35922)
Technique: RNA Bind-n-Seq
Form: RNA
Matrix: in vitro
Concentration: 200 nM
Notes: whole 134-nt RNA, ends assumed
Together with: 150 mM LiCl
Reference: input library
Reading: higher = stronger binding
All molecules: 7-deaza-guanosine replaces G
Constant ends, left off below: GGGAGUUCUACAGUCCGACGAUC … UGGAAUUCUCGGGUGUCAAGG
Strand | log2 enrichment
CACAGACAACACGCACCCACACAGACACAGAGGGAAGGGGUUGGGAGGGGGACAGGGUGCACAGCAGGGCGGGGUAGGACCCCAGCCCCU | 1.05
AAUGUGUCCUCCCUGUCCAAAUUGGGAAUGACUUAAUGUCAAUUUGUUUGUUGGUUGUUUUAAUAAUACUUCCUUAUGUAGCCAUUAAGA | -0.018
AAGUCCUGUGCUACACAUCGUAUGUACCGAAUCGUGUGUGUGUGUGUGUGUGUGUGUAAAGUAUUAUGUUACGCCGUUCGGAUCUGCACU | -0.407
CUCAAGUCCUGUGCUACACAUCGUAUGUACCGAAUCGGAAAGGAAAGGUUUGGAAAGUAUUAUGUUACGCCGUUCGGAUCUGCACUUCCA | -0.769
CACAGACAACAGGCACCCACACAGACACAGAGGGAAGGGGUUGGGAUGGGGACAGGGUGCACAGCAGGGCGGGGUAGGACCCCAGCCCCU | 0.231
UCCUCAAGUCCUGUGCUACACAUCGUAUGUACCGAAUCGGGGCGGGCGGCGGAAAGUAUUAUGUUACGCCGUUCGGAUCUGCACUUCCAG | -0.332
CACAGACGACACGCACCCACACAGACACAGAGGGAAGGGGUUGGGAUGGGGACAGGGUGCACAGCAGGGCGGGGUAGGACCCCAGCCCCU | 0.492
CAAGUCCUGUGCUACACAUCGUAUGUACCGAAUCGGGGAAAGGAAAGGGAAAGGGAAAGUAUUAUGUUACGCCGUUCGGAUCUGCACUUC | -0.705
CUGUGCUACACAUCGUAUGUACCGAAUCGGUUUUUUUGGGGUUUUUUUGGGGUUUUUUUGGGAAAGUAUUAUGUUACGCCGUUCGGAUCU | 1.19
UGGCCCUGGUGGCAUGCGGGGAGGAAGAGGUGGCCUCAUGGAUCGUGGUGGUCCCGGUGGAAUGUUCCGAGGUGGCCGUGGUGGAGACAG | -0.754
UCAAGUCCUGUGCUACACAUCGUAUGUACCGAAUCGGAAAGGUUUUUGGAAAGGAAAGUAUUAUGUUACGCCGUUCGGAUCUGCACUUCC | -0.966

Single results of other studies
Substance | target | test | system | setting | how to read | quantity | result
PhoQ, residues 284 288 289 292 302 303 AEGLLW | PhoP, residues 12 14 15 18 19 YHFSH (Escherichia coli, UniProt P23836) | Sort-seq, item: YFP reporter | E. coli | PhoQ-PhoP variant library, together with: 10 µM Mg2+ | reference: high Mg2+ state, higher = stronger signaling | fold induction | 3.9

Excerpt of the above (study 5):
Strand | log2 enrichment
UCCUCAAGUCCUGUGCUACACAUCGUAUGUACCGAAUCGGGGCGGGCGGCGGAAAGUAUUAUGUUACGCCGUUCGGAUCUGCACUUCCAG | -0.332
CACAGACGACACGCACCCACACAGACACAGAGGGAAGGGGUUGGGAUGGGGACAGGGUGCACAGCAGGGCGGGGUAGGACCCCAGCCCCU | 0.492
CAAGUCCUGUGCUACACAUCGUAUGUACCGAAUCGGGGAAAGGAAAGGGAAAGGGAAAGUAUUAUGUUACGCCGUUCGGAUCUGCACUUC | -0.705
CUGUGCUACACAUCGUAUGUACCGAAUCGGUUUUUUUGGGGUUUUUUUGGGGUUUUUUUGGGAAAGUAUUAUGUUACGCCGUUCGGAUCU | 1.19
UGGCCCUGGUGGCAUGCGGGGAGGAAGAGGUGGCCUCAUGGAUCGUGGUGGUCCCGGUGGAAUGUUCCGAGGUGGCCGUGGUGGAGACAG | -0.754
UCAAGUCCUGUGCUACACAUCGUAUGUACCGAAUCGGAAAGGUUUUUGGAAAGGAAAGUAUUAUGUUACGCCGUUCGGAUCUGCACUUCC | -0.966
